Measured values from different studies.
Protocols differ between the studies behind these lines.
Method: steady-state kinetics
B1: protein (Sinorhizobium meliloti, UniProt Q92LZ4); chain MSRPRILVPGKINPRVLERLPEMFETVRIERADAALVTADMRDVSGIAVSGKLPVPLMDAFPSLEIVANFGVGYDGVDVSRAAARGIVVTNTPDVLTEEVADTAIGLLLNTLRLLPQAEQWLRQGRWVREGAFPLSPLSLRGRTVGLFGLGRIGLAIARRLEAFGVSIAYHTRTPREGLGFTYHPTLVGMAEAVDTLIVIVPGTASTLKAVNADVLSALGPKGVLINVGRGSTVDEAALVTALQNGTIAGAGLDVFENEPNVPEALLSFPNVSLLPHVASASVVTRNAMSDLVVDNLKAWFSTGEALTPVAETPFRRRAIQN
B2: Tcur_2987 W263F/W376F (Thermomonospora curvata, UniProt D1A807); chain ACSEERAAGARPSATQTTGTATEPFHGPHQAGIATPPQAHAVFLGLDLRKGTGRKELGRLMRLLTDDARRLTQGRPALADPEPDLAPLPSRLTFTFGFGPGLFKAAGLEKQRPEGLRPLPPFKVDRLEDRWSGGDLLVQICCDDPITLAHALRMTVKDARAFTRVRWVQRGFRRSPGVQSSGATQRNLMGQLDGTVNPVPGTADFDQAVWVQDGPEWLRGGTTLVLRRIRMELEKFDEADPAGKEFAVGRRLTSGAPLTGRHEHDEPDFDAVDSAGFPVIAENAHIRLAHVDSPRLRMLRRPYNYDEGLTADGRSDAGLLFAAYQADIDRQFIPVQRRLDEGGDLLNLFTTPIGSAVFAIPPGCDENGWIGQGLLG
B3: flaI (Sulfolobus acidocaldarius, UniProt Q4J9L0); chain MSFVEDYLTKLQERPTIIENPNILKGSKIFNAIYRVDDFVYIHIQSIKSEDGYNQYNVIEPPRPTHDEMEEIEEKFALSIGDKEPPEDTKEKEKLIRSILDKILLRMRLSVPKEYVIYHFIRDKLYTGSLEPLIRDPYIEDISIPGLGHVYIVHKVFGPMRTSIKFENYEELDNLIVSLSEKSYRPVSHNRPVVDASLPDGSRVNFVYGVDISRRGSNLTVRKFSRVPTSITQLIMFGTLSSMMAAYIWTMLDEGMNLFVCGETASGKTTTLNAITAFIPPNLKIVTIEDTPELTVPHSNWVAEVTRETGGEGTIKLFDLLKAALRQRPNYILVGEIRDKEGNVAFQAMQTGHSVMATFHAANITTLIQRLTGYPIEVPKSYINNLNIALFQTALYDKKGNLIRRVVEVDEIIDIDPVTNDVVYIPAFTYDSVQDKMLFAGKGSSYLIENKIAVKRGIDRRNIGLLYDELQMRSRFLNLLVEKKIFNYYDVWDYILRARQMGLEEAIKYVSNI
B4: protein (Sinorhizobium meliloti, UniProt Q92T34); chain MPAKSPVIVDLKFIPEEVEAALAGAFPGREVIDLADPAHQERDLSGIDYAVVWKSAPDLFSRAPDLKVVFSGGAGVDHVLTLPGLPDVPLVRFVDRTLTTRMSEWVMMQCLLHLRQHRAYEALAKKHEWRDLSQPEAADVTVGIMGMGVLGQDAARKLAAMGFKVIGWSRSKRVIEGVETYDAAGLDAFLGRTDFLVGLLPLTPDTRGIFNAALFAKLSRNGPFGAPVFINAGRGGSQVEADILECLDSGVLGGASLDVFEREPLSPESRFWDMPNVYVTPHVAASSDVRALFVHVEHQIARFESGLPLEHVVDKVAGY
B5: SAC1 (Saccharomyces cerevisiae, UniProt P32368); chain MTGPIVYVQNADGIFFKLAEGKGTNDAVIHLANQDQGVRVLGAEEFPVQGEVVKIASLMGFIKLKLNRYAIIANTVEETGRFNGHVFYRVLQHSIVSTKFNSRIDSEEAEYIKLLELHLKNSTFYFSYTYDLTNSLQRNEKVGPAASWKTADERFFWNHYLTEDLRNFAHQDPRIDSFIQPVIYGYAKTVDAVLNATPIVLGLITRRSIFRAGTRYFRRGVDKDGNVGNFNETEQILLAENPESEKIHVFSFLQTRGSVPIYWAEINNLKYKPNLVLGENSLDATKKHFDQQKELYGDNYLVNLVNQKGHELPVKEGYESVVHALNDPKIHYVYFDFHHECRKMQWHRVKLLIDHLEKLGLSNEDFFHKVIDSNGNTVEIVNEQHSVVRTNCMDCLDRTNVVQSVLAQWVLQKEFESADVVATGSTWEDNAPLLTSYQNLWADNADAVSVAYSGTGALKTDFTRTGKRTRLGAFNDFLNSASRYYQNNWTDGPRQDSYDLFLGGFRPHTAS
B6: Tcur_2987 W376F (Thermomonospora curvata, UniProt D1A807); chain ACSEERAAGARPSATQTTGTATEPFHGPHQAGIATPPQAHAVFLGLDLRKGTGRKELGRLMRLLTDDARRLTQGRPALADPEPDLAPLPSRLTFTFGFGPGLFKAAGLEKQRPEGLRPLPPFKVDRLEDRWSGGDLLVQICCDDPITLAHALRMTVKDARAFTRVRWVQRGFRRSPGVQSSGATQRNLMGQLDGTVNPVPGTADFDQAVWVQDGPEWLRGGTTLVLRRIRMELEKWDEADPAGKEFAVGRRLTSGAPLTGRHEHDEPDFDAVDSAGFPVIAENAHIRLAHVDSPRLRMLRRPYNYDEGLTADGRSDAGLLFAAYQADIDRQFIPVQRRLDEGGDLLNLFTTPIGSAVFAIPPGCDENGWIGQGLLG
B7: TRM10 G206A/G207A (Saccharomyces cerevisiae, UniProt Q12400); chain MSNDEINQNEEKVKRTPPLPPVPEGMSKKQWKKMCKRQRWEENKAKYNAERRVKKKRLRHERSAKIQEYIDRGEEVPQELIREPRINVNQTDSGIEIILDCSFDELMNDKEIVSLSNQVTRAYSANRRANHFAEIKVAPFDKRLKQRFETTLKNTNYENWNHFKFLPDDKIMFGDEHISKDKIVYLTADTEEKLEKLEPGMRYIVAAIVDKNRYKELCLKKAQKMGIPTRRLPIDEYINLEGRRVLTTTHVVQLMLKYFDDHNWKNAFESVLPPRKLDAEAKSASSSPAPKDT
B8: Tcur_2987 Y332F (Thermomonospora curvata, UniProt D1A807); chain ACSEERAAGARPSATQTTGTATEPFHGPHQAGIATPPQAHAVFLGLDLRKGTGRKELGRLMRLLTDDARRLTQGRPALADPEPDLAPLPSRLTFTFGFGPGLFKAAGLEKQRPEGLRPLPPFKVDRLEDRWSGGDLLVQICCDDPITLAHALRMTVKDARAFTRVRWVQRGFRRSPGVQSSGATQRNLMGQLDGTVNPVPGTADFDQAVWVQDGPEWLRGGTTLVLRRIRMELEKWDEADPAGKEFAVGRRLTSGAPLTGRHEHDEPDFDAVDSAGFPVIAENAHIRLAHVDSPRLRMLRRPYNFDEGLTADGRSDAGLLFAAYQADIDRQFIPVQRRLDEGGDLLNLWTTPIGSAVFAIPPGCDENGWIGQGLLG
B9: enzyme (Escherichia coli, UniProt P00383); chain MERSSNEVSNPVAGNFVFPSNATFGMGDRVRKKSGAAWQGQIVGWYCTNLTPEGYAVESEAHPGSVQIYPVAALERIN
UniProt Q6QT07, sequence (whole entry, looked up): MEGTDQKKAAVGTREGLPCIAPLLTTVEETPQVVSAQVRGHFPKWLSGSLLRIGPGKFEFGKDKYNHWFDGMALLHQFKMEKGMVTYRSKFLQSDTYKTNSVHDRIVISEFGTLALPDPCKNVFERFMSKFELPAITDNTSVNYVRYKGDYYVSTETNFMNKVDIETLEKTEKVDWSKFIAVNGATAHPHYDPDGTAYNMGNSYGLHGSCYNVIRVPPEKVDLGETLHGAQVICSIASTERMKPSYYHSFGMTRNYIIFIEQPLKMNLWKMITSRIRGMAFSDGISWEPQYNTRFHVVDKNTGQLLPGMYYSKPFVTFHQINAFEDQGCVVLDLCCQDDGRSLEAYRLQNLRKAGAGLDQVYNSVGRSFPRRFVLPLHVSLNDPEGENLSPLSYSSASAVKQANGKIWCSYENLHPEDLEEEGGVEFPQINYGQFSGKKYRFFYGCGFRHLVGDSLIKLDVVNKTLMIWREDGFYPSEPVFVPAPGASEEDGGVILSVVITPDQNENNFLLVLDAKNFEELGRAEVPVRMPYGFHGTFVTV
UniProt P21777, sequence (whole entry, looked up): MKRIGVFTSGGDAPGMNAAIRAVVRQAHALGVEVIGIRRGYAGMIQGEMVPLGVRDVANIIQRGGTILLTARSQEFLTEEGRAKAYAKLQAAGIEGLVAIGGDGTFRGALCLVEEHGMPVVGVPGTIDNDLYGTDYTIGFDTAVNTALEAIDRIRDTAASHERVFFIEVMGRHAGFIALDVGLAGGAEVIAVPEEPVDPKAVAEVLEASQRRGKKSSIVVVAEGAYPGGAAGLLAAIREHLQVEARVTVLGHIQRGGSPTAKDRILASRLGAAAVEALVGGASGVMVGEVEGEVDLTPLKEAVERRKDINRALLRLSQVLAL
UniProt Q18B70, sequence (whole entry, looked up): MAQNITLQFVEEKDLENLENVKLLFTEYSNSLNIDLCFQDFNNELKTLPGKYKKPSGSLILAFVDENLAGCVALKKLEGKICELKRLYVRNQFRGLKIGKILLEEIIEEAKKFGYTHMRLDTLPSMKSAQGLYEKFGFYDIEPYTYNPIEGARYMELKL

B1 (protein)  K0.5 (O=C(O)C(=O)CO; pH 7.5, 25 °C, NaCl 150 mM, added: NADPH 0.4 mM): 6140 µM
B2 (Tcur_2987 W263F/W376F)  K0.5 (Nc1c(S(=O)(=O)O)cc(Nc2cccc(S(=O)(=O)CCOS(=O)(=O)O)c2)c2c1C(=O)c1ccccc1C2=O; pH 3, sigmoidal kinetics, added: H2O2 1 mM): 26 µM
protein (Clostridioides difficile, UniProt Q18B70)  K0.5 (CC(=O)SCCNC(=O)CCNC(=O)[C@H](O)C(C)(C)COP(=O)(O)OP(=O)(O)OC[C@H]1O[C@@H](n2cnc3c(N)ncnc32)[C@H](O)[C@@H]1OP(=O)(O)O; pH 8, 37 °C, added: L-Thr 10 mM, AcCoA 0-2 mM): 248 µM
B3 (flaI)  K0.5 (Nc1ncnc2c1ncn2[C@@H]1O[C@H](COP(=O)(O)OP(=O)(O)OP(=O)(O)O)[C@@H](O)[C@H]1O; pH 7.5, 70 °C, NaCl 150 mM, Hill coefficient): 10000 µM
protein (Pseudoalteromonas luteoviolacea, UniProt A0A161XU12)  K0.5 (NCC(=O)O; pH 7.5, 30 °C, positive cooperativity): 187 µM
B4 (protein)  K0.5 (NC(=O)C1=CN([C@@H]2O[C@H](COP(=O)(O)OP(=O)(O)OC[C@H]3O[C@@H](n4cnc5c(N)ncnc54)[C@H](OP(=O)(O)O)[C@@H]3O)[C@@H](O)[C@H]2O)C=CC1; pH 7.5, 25 °C, NaCl 150 mM, cofactor varied, added: hydroxypyruvate 66.7 mM): 10.5 µM
pfkA (Thermus thermophilus, UniProt P21777)  K0.5 (Nc1ncnc2c1ncn2[C@@H]1O[C@H](COP(=O)(O)OP(=O)(O)OP(=O)(O)O)[C@@H](O)[C@H]1O; pH 8, 25 °C, Hill fit, added: Fru-6-P 5 mM, MgCl2 5 mM): 6 µM
speG (Vibrio cholerae, UniProt Q9KL03)  K0.5 (NCCCNCCCCNCCCN; pH 9, 37 °C): 579 µM
B5 (SAC1)  K0.5 (CCCCCCCC(=O)OC[C@H](COP(=O)(O)O[C@H]1[C@H](O)[C@@H](O)[C@H](OP(=O)(O)O)[C@@H](O)[C@H]1O)OC(=O)CCCCCCC; pH 6.8): 16 µM
B6 (Tcur_2987 W376F)  K0.5 (Nc1c(S(=O)(=O)O)cc(Nc2cccc(S(=O)(=O)CCOS(=O)(=O)O)c2)c2c1C(=O)c1ccccc1C2=O; pH 3, sigmoidal kinetics, added: H2O2 1 mM): 49 µM
B7 (TRM10 G206A/G207A)  K0.5 (C[S+](CC[C@H](N)C(=O)O)C[C@H]1O[C@@H](n2cnc3c(N)ncnc32)[C@H](O)[C@@H]1O; pH 8, 30 °C): 77.6 µM
B8 (Tcur_2987 Y332F)  K0.5 (Nc1c(S(=O)(=O)O)cc(Nc2cccc(S(=O)(=O)CCOS(=O)(=O)O)c2)c2c1C(=O)c1ccccc1C2=O; pH 3, sigmoidal kinetics, added: H2O2 1 mM): 34 µM
enzyme (UniProt A0A0C2CTX7)  K0.5 (Br; 28 °C): 1000 µM
BCO2 (Mustela putorius furo, UniProt Q6QT07)  K0.5 (CC1=C(/C=C/C(C)=C/C=C/C(C)=C/C=C/C=C(C)/C=C/C=C(C)/C=C/C2=C(C)C[C@@H](O)CC2(C)C)C(C)(C)C[C@H](O)C1; crude Sf9 lysate; pH 8.5, 37 °C, apparent, not purified, added: FeSO4 10 µM, NAD+ 3 mM): 51.5 µM
B9 (enzyme)  K0.5 (NC(=O)C1=CN([C@@H]2O[C@H](COP(=O)(O)OP(=O)(O)OC[C@H]3O[C@@H](n4cnc5c(N)ncnc54)[C@H](OP(=O)(O)O)[C@@H]3O)[C@@H](O)[C@H]2O)C=CC1; pH 7, not purified, cofactor varied): 10.8 µM

A few entries again:
B4 (protein)  K0.5 (NC(=O)C1=CN([C@@H]2O[C@H](COP(=O)(O)OP(=O)(O)OC[C@H]3O[C@@H](n4cnc5c(N)ncnc54)[C@H](OP(=O)(O)O)[C@@H]3O)[C@@H](O)[C@H]2O)C=CC1; pH 7.5, 25 °C, NaCl 150 mM, cofactor varied, added: hydroxypyruvate 66.7 mM): 10.5 µM
B5 (SAC1)  K0.5 (CCCCCCCC(=O)OC[C@H](COP(=O)(O)O[C@H]1[C@H](O)[C@@H](O)[C@H](OP(=O)(O)O)[C@@H](O)[C@H]1O)OC(=O)CCCCCCC; pH 6.8): 16 µM
